Measured values of several laboratories.
“And” joins repeats or separate records; there may be more than shown. ± gives the spread as reported.

O=C(N[C@H](Cc1c[nH]c2ccccc12)C(=O)Nc1ccncc1)c1ccc(N2CCN(c3ccc(F)cc3F)CC2)cc1F
concentration (Swiss Webster mouse, female, brain; oral, 50 mg/kg, 2 h, 20% Kolliphor vehicle): 1350 nM

CNCc1ccc(-c2[nH]c3cc(F)cc4c3c2CCNC4=O)cc1
neutropenia incidence (human patients; oral, 480 mg twice daily, all grades): 33.3%

Cn1cncc1-c1c(F)cncc1NC(=O)c1c(N)nn2cc(F)cnc12
intercompartmental clearance (two-compartment PK model; xenograft-bearing mice, plasma): 0.017 mL/min/kg

O=C(O)CSc1nnc(Br)n1-c1ccc(C2CC2)c2ccccc12
body weight (KM mouse, chronic hyperuricaemia model; dose not given, day 10): 33.1 g and 26.4 g and 25.6 g and 31 g and 30.3 g and 29.9 g

C=CCN1CC(=O)N2[C@@H](Cc3ccc(O)cc3F)C(=O)N(Cc3cccc(N4CC(N5CCN(CC)CC5)C4)n3)C[C@@H]2N1C(=O)NCc1ccccc1
treatment-related adverse events (measured: decreased appetite; human advanced solid tumours; concentration not given, dose escalation grade ≥3): 5.6%

Cl.[2H]C([2H])([2H])CC(=O)c1cnc(NC(=O)C2CC2)cc1Nc1cccc(-c2ncn(C([2H])([2H])[2H])n2)c1OC
terminal elimination rate constant (human, fasted, multiple dose; oral, 20 mg once daily, tablet, day 14, geometric mean): 2.11e-05 s⁻¹

NS(=O)(=O)c1ccc(CNc2nc(Nc3cccc(CN4CCOCC4)c3)ncc2C2CC2)cc1
effective permeability (PAMPA; PBS; 5 h, pH 7.4): 0.709 ×10⁻⁶ cm/s

CCCOc1ccc(-c2ccc(C#N)cc2)cc1
fetal accumulation (Sprague-Dawley rat, female, fetus; 1000 ng/mL in perfusate, 50 (unit not given), middle dose, mixture of 21 LCMs): 5.9 ± 1.7 ng/g

CCCCCCCCCCCCCCCC(=O)[O-].C[N+](C)(C)CCO
critical aggregation concentration (fluorescence probe; water; 37 °C): 8.74 ± 0.08 mmol/L

Cn1cc(Nc2nccc(-c3ccc4c(c3)CN(C3COC3)CC[C@H]4NC(=O)c3cn(C(C)(C)C)nn3)n2)cn1
percent change from baseline (measured: B cell count; human, clinical trial, whole blood; 50 mg twice daily, follow-up): -9.07%

CC(=O)N[C@@H](CC(N)=O)C(=O)N[C@@H](CC(N)=O)C(=O)N[C@@H](CC(C)C)C(=O)N[C@H]1CSSC[C@@H](C(=O)N[C@H](C(N)=O)[C@@H](C)O)NC(=O)[C@H](CCCNC(=N)N)NC(=O)[C@H](Cc2c[nH]cn2)NC(=O)[C@H](C)NC(=O)CNC(=O)[C@H](Cc2c[nH]c3ccccc23)NC(=O)[C@H](CC(=O)O)NC(=O)[C@H](CCC(N)=O)NC(=O)[C@H](Cc2c[nH]c3ccccc23)NC(=O)[C@H](C(C)C)NC1=O
retention factor (RP-HPLC, C18; 28% acetonitrile isocratic; pH 7.4): 1.047 ± 0.01

Cc1occc(=O)c1[O-].[Cl-].[W+4].c1cc[cH-]c1.c1cc[cH-]c1
oxidation peak potential (cyclic voltammetry; acetonitrile; relative to: Ag/AgCl): 0.67 to 0.73 V

CC(C)(C(=O)N1CCOc2c(C#N)cncc2C1)C(F)F
subjects with presyncope TEAE (human, both sexes; oral, 40 mg single dose): 0%

COc1cccc(OC)c1-c1cc(C(=O)NC2(C(=O)O)C3CC4CC(C3)CC2C4)nn1-c1ccc(C(=O)N(C)CCCN(C)CCCN(C)C(=O)CN2CCN(CC(=O)[O-])CCN(CC(=O)[O-])CCN(CC(=O)[O-])CC2)cc1C(C)C.[177Lu+3] (centres unmarked)
tissue uptake (mouse, HT-29 xenograft, muscle; 24 h post injection): 0.06 %ID/g

N[C@@H]1c2ccccc2OC12CCN(c1cnc3c(N4CCCc5ncccc54)n[nH]c3n1)CC2
AUC(0-tau) (advanced metastatic solid tumour patients, plasma; oral, 40 mg once daily, cycle 1 day 1, geometric mean): 2740 ng·h/mL

CCCOc1ccc([C@H]2CNC(=O)N2c2ccc3[nH]cnc3c2)cc1
AUC(0-12h) (human volunteers fasted, plasma; oral capsule, 200 mg single dose, crossover, geometric mean): 2020 ng·h/mL

COc1cc2c3c(n(CCCN4CCOCC4)c(=O)c2cc1OC)-c1cc2c(cc1C3=O)OCO2
Vz (beagle dog, female, plasma; intravenous infusion, 10 mg/m^2, 1 h infusion, vehicle 1): 426 ± 152 L/m²

COc1ccc2c(=O)n(C)c(-c3ccccc3)nc2c1
tissue concentration (male Sprague-Dawley rat, large intestine; oral, 30 mg/kg, 2 h): 5500 ng/g

N#Cc1ccc2c(c1)[C@H]1CCCN(C(=O)c3ccc4[nH]cnc4c3)[C@H]1C2
androstenedione level (human, male; 360 mg, day 15): 9.6 nmol/L

Oc1ccc(/C=C/c2cc(O)cc(O)c2)cc1
T-BIL level (rat, azoxymethane-injected, blood; in vivo, 100 mg/kg, at sacrifice): 0.05 mg/dL and 0.04 mg/dL

CN1C[C@H](COc2nccc3c(NCc4ccco4)cc(Cl)nc23)OC1=O
LV dP/dt max (rabbit NZW female, isolated Langendorff heart; 10 µM, 15 min): 1190 mmHg/s

CCCCc1ccc(-c2ccc(C#N)cc2)cc1
fetal accumulation (Sprague-Dawley rat, female, fetus; 1000 ng/mL in perfusate, 50 (unit not given), middle dose, mixture of 21 LCMs): 0.047 ± 0.048 ng/g

Cc1ccc(N(c2ccc(NC(=O)CN(C)c3ccccc3N3CCCC3=O)cc2)C(C)C)cc1
clearance (male CD1 mice, plasma; oral, 20 mg/kg): 125 mL/min/kg

COc1c(N2C[C@@H]3CCCN[C@@H]3C2)c(F)cc2c(=O)c(C(=O)O)cn(C3CC3)c12
QTcI change from baseline (healthy volunteers; oral, 400 mg single dose, day 5, 1.00 h): -3 ms

CCc1nc(C(N)=O)c(Nc2ccc(N3CCC(N4CCN(C)CC4)CC3)c(OC)c2)nc1NC1CCOCC1
AUC(0-24) (Japanese patients, plasma; oral, 40 mg, cycle 0 day -2, single dose, mean): 436 ng·h/mL

NCc1cc2c(cc1F)C(=O)N(C1CCC(=O)NC1=O)C2 (centres unmarked)
half-life (male cynomolgus monkey, whole blood): 0.17 h

C[C@@H]1OC(=O)[C@H](Cc2ccccc2)[C@H]1O
share of total radioactive residue (laying hens, female, liver; oral, 10.7 mg/kg dry feed, 7 days): 11.6 % TRR

CCCCCNC(=O)N1CCC(CN(Cc2ccc(Cl)cc2)Cc2ccc([N+](=O)[O-])s2)C1 (centres unmarked)
mean platelet volume (complete blood count; C57BL/6 mice, blood; 100 mg/kg twice daily, 7 days): 5.4 ± 0.2 fL

CN(C(=O)n1cnc(-c2cccnc2)c1)C1CCCCC1
concentration (Wistar rat, hippocampus; oral, 10 mg/kg/day of BIA 10-2474, 48 h, repeated 5 days): 9.5 ± 0.1 ng/g

CC1(C)CC[C@]2(NC(=O)C(C)(F)F)CC[C@]3(C)[C@H](C(=O)C=C4[C@@]5(C)C=C(C#N)C(=O)C(C)(C)[C@@H]5CC[C@]43C)[C@@H]2C1
trough plasma concentration (human, plasma; oral, 150 mg once daily, day 21 predose, median): 32 ng/mL

CCc1cc(C(=O)NC)c2nccc(N3CCc4c(cc(Cn5ccnc5)cc4-c4cn(C)nc4C(F)(F)F)C3=O)c2c1
body weight change (Sprague Dawley rat; oral, 50 mg/kg once daily, day 4, 7-day toxicology study; relative to: day 1): 9.7%

CCCCCCOC(=O)NC(=N)c1ccc(NCc2nc3cc(C(=O)N(CCC(=O)OCC)c4ccccn4)ccc3n2C)cc1
participants with adverse event (measured: Diarrhea; human; oral, 75 mg, alone): 4.2%

C[C@@H]1CN(CC(=O)N2CC(C)(C)c3ncc(Cc4ccc(F)cc4)cc32)[C@@H](CN2CCOC[C@H]2C)CN1
half-life (cynomolgus monkey, male; oral, 5 mg/kg): 3.6 ± 0.21 h

CC[C@H](C)[C@H](NC(=O)[C@H](CO)NC(=O)[C@H](CCCNC(=N)N)NC(C)=O)C(=O)N[C@H]1CSSC[C@@H](C(=O)N[C@H](C(N)=O)[C@@H](C)O)NC(=O)[C@H](CCCNC(=N)N)NC(=O)[C@H](Cc2c[nH]cn2)NC(=O)[C@H](C)NC(=O)CNC(=O)[C@H](Cc2c[nH]c3ccccc23)NC(=O)[C@H](CC(=O)O)NC(=O)[C@H](CCC(N)=O)NC(=O)[C@H](Cc2c[nH]c3ccccc23)NC(=O)[C@H](C(C)C)NC1=O
retention factor (RP-HPLC, C18; 28% acetonitrile isocratic; pH 7.4): 1.348 ± 0.009

N#Cc1ccc(-c2cnc3ccc(-c4ccc(C(=O)N5CCOCC5)cc4)cn23)cc1
placebo-corrected change from baseline (measured: PR interval; healthy volunteers; oral, 10 mg, fasted, time-averaged): 4.3 ms

C[Si]1(C)O[Si](C)(C)O[Si](C)(C)O[Si](C)(C)O[Si](C)(C)O1
log KOA (1-octanol/air; 25 °C): 4.95

O=C(O)C[C@H](O)C[C@H](O)/C=C/c1c(C2CC2)nc2ccccc2c1-c1ccc(F)cc1
AUC(0-12h) (OATP1B1/1B3 humanized mouse, plasma; oral, 5 mg/kg, geometric mean): 0.614 µM·h

Cc1cc(Nc2ncc(Cl)c(Nc3ccccc3S(=O)(=O)C(C)C)n2)c(OC(C)C)cc1C1CCNCC1
dose-adjusted solubility (FaSSIF; literature solubility over dose): 1.12e-05 mL⁻¹

CNC(=O)c1ccc(-c2cnc3ncc(Cc4ccc5ncccc5c4)n3n2)cc1F
patients with adverse event (measured: Asthenia, all grades; hepatocellular carcinoma patients; oral, 600 mg twice daily, expansion cohort, any causality): 9%

O=C(Nc1nc2cccc(-c3ccc(CN4CCS(=O)(=O)CC4)cc3)n2n1)C1CC1
treatment-emergent adverse events (measured: renal and urinary disorders; rheumatoid arthritis patients; oral, 30 mg once daily, 4 weeks, any relatedness): 0%

CCCc1c(-c2ccc(O)cc2)nn(-c2ccc(O)cc2)c1-c1ccc(O)cc1
dose-normalised Cmax (female Long-Evans rats, serum; subcutaneous, 5.2 µmol/kg): 0.07 µM per µmol/kg

CCOc1c([C@H](C)n2nc(C)c3c(N)ncnc32)cc(Cl)c(F)c1[C@@H]1CNC(=O)C1
AUC(0-last) geometric mean (patients, monotherapy; oral, 10 mg once daily, cycle 1 day 1): 2.99 µM·h

O=C(Nc1cnccc1Cl)N1CCN(Cc2ccc3c(c2)OC(F)(F)O3)CC1
adverse event incidence (measured: Headache; human healthy young women; 100 mg, multiple dose): 66.7%

CN(C)C(=N)N=C(N)N
subjects with adverse event (measured: nervous system disorders; healthy men; oral, dose not given, 8 days, treatment-emergent, crossover trial): 13.6%

CCn1cc(C(=O)N2CCOCC2)c(=O)c2cc(NC3Cc4ccccc4C3)cnc21
AUC(0-12h) (human female, fed, plasma; oral, 900 mg twice daily, day 7, tablet, arithmetic mean): 51100 ng·h/mL

CNC(=O)c1ccc(-c2cnc3ncc(Cc4ccc5ncccc5c4)n3n2)cc1F
Cmax (human, plasma; oral, 200 mg, geometric mean): 1330 ng/mL

COc1nnc2ccc(N3CCC(c4ccc(OCCN5CCN(C)C(=O)[C@H]5C)cc4)CC3)nn12
terminal half-life (human, plasma; oral, 2 mg once daily, single dose, monotherapy): 5.45 h

CCN1CCN(Cc2ccc(Nc3ncc(F)c(-c4cc(F)c5nc6n(c5c4)[C@H](C)CCC6)n3)nc2)CC1
Vd (non-compartmental; human, phase Ia): 1630 to 2320 L

Cc1cc(C)c(CNC(=O)c2cc(Cl)c3c(c2C)O[C@@](C)([C@H]2CC[C@H](N(C)C)CC2)O3)c(=O)[nH]1
disease progression grade ≥3 (human relapsed/refractory NHL; oral, 200 mg once daily, onset after cycle 1 day 1): 8.3%

O=C(O)CCC(=O)O.[2H]C([2H])([2H])Oc1cc(C)c2[nH]ccc2c1CN1CC[C@@H](C2CC2)C[C@H]1c1ccc(C(=O)O)cc1
TEAE decreased neutrophil (healthy Chinese subjects; 400 mg, single ascending dose): 0%

Some of these lines once more:
COc1cccc(OC)c1-c1cc(C(=O)NC2(C(=O)O)C3CC4CC(C3)CC2C4)nn1-c1ccc(C(=O)N(C)CCCN(C)CCCN(C)C(=O)CN2CCN(CC(=O)[O-])CCN(CC(=O)[O-])CCN(CC(=O)[O-])CC2)cc1C(C)C.[177Lu+3] (centres unmarked)
tissue uptake (mouse, HT-29 xenograft, muscle; 24 h post injection): 0.06 %ID/g

C=CCN1CC(=O)N2[C@@H](Cc3ccc(O)cc3F)C(=O)N(Cc3cccc(N4CC(N5CCN(CC)CC5)C4)n3)C[C@@H]2N1C(=O)NCc1ccccc1
treatment-related adverse events (measured: decreased appetite; human advanced solid tumours; concentration not given, dose escalation grade ≥3): 5.6%

O=C(N[C@H](Cc1c[nH]c2ccccc12)C(=O)Nc1ccncc1)c1ccc(N2CCN(c3ccc(F)cc3F)CC2)cc1F
concentration (Swiss Webster mouse, female, brain; oral, 50 mg/kg, 2 h, 20% Kolliphor vehicle): 1350 nM
